Assay results pooled from the literature.
Numbered parts are unrelated; each lists some results of a single study. Substitutions count along the parent as printed.

Sample 1 — method: RNA Bind-n-Seq; form: RNA; medium: in vitro; tested at: 365 nM; relative to: no-protein control; reading: higher = stronger binding
Target: RNA binding protein fox-1 homolog 2, RRM domain, GST-SBP tag (RBFOX2, Homo sapiens, UniProt O43251-10, residues 100-194)
Notes: natural RNA segment, single round, ends assumed
Constant ends, left off below: GGGAGUUCUACAGUCCGACGAUC … UGGAAUUCUCGGGUGCCAA
Target sequence (chain): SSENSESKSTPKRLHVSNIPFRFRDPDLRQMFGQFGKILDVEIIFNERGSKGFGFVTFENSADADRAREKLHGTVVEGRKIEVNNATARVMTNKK
Oligonucleotide	RBNS enrichment (R)
UGAGCCUCUCUGUGCCUUGGGCCCUAAAGCCCCAUGUGUAGUAUAGAGCAAAGGUGAUUCCUGGUGGAGAAGGGGAAAAGCCCUUCUACCCUAGAGUCAUGCCUGGAUCC	0.168
UACUUCAUCUGUUCUCAUUUGUGCCAUCUGCCGUGAUGUCGUCACUUUUAUGGCGUUAAUUUCCUGCCACUACAGAUCUUUUGAAGAUUGCUGGAAUACUGGUGUCUGUU	0.976
CUGUAUUCUUGCCAAAGAUUUCCUUUAAACAAGAGCACUUUUACCCAAUGGCUCUUUUGUGAAUGAUCUGUUUCGUUAUUGUUUAUUGUUGAGUCUGUAUAUCAACAGGG	0.49
AUAGCACUAAUUUUUAUUUGUGGUAUUUUUCUAUAACAAAACAAGUAGCUCUAGGAAAAGAGGUUUUAUUUUGUAAACGAUCAUUUGUGACCUCAGACACUCUCUGGCUA	0.32
CUCGCCUCUGCAGUGAUGCUGCCUACACCUCCACCUCCUUCCCCUUCUCCCUCAGGCAACCCCGACAGACAGUGGCACUCCUGGUCCUGCUGUCUUGGUUUUGUCUUGGC	0.511
UGUCAGCAGGGGGCCUGGUGGGAGGAGCGACUGCCCUGCCCAAAUGAACUGCCACAGCAGGGACAGCUGGACCGCAGAGUUUAUUUUUGUAUUUCUACUGGGCCUGCACA	0.417
AAUUGUAGUGUUGGCAAGCCCAAGCCACUCGUGCUAACUGCUUUUUGUCUCGGUUGCUAUUCCAAGAACAGAAGGAGGAAGUUGGCCAAUUACAGCGUGUGUGCAUGGAU	0.397
AGUAUAGGGAAUGGGCACUGAGUCACUGAGAACACUUGCAGGGUUGACUUUGCAUAUAGGGCUCCCAUGCACCCACCGUUCCUCUGUUUUGAAACUCUAAUUGCAAUAAC	0.617
CUUUAGGCCAACUCUGUCUUGGCUGAUAACUCUUACAAUGCACGUUACUAACUUGGUGUCGCUACCCAGGACACAUUGUCUACAGUAAAUGGAAUGUGAGCCACAUCUGU	4.99
UGUGUACAUUUAAGAAAAAAACAAAAAAACGGAAAUGUCAGAAUUGUAUGGAAAUAAAACUUGUUUGAAAAUUUGGAAUAGUGCUGCUGCCAGCUUAUUUUUCUGGUACU	1.24
AAAAAACAAGACCCUUCACACAGUUAGCUCAGGCCAUUUUAAGGACGAAGGCUCUGCUGGUCCUCCUGUGCUGGGAAUCUCUUUGAUGGCCUCUUGUGAAGCUCAUGAAA	0.263
ACAAAUAGUGUUAUUGGAAGGGAUGUGUAAUUUUUCUGUAUAGACAGGAGAAGAAAUAACUAUCUUUUCAUUUGGGAGAGGCUAAAGAUGUUUUCAGCUACUUGCAAAUC	0.408

Sample 2 — method: RNAcompete; form: RNA; medium: in vitro; tested at: 20 nM; notes: 7-mer, probes averaged, single round; relative to: mean of 7-mers; reading: higher = stronger binding
Target: PABPC1L2, full length, GST fusion (mouse, UniProt A0ABA7IW68)
Target sequence (chain): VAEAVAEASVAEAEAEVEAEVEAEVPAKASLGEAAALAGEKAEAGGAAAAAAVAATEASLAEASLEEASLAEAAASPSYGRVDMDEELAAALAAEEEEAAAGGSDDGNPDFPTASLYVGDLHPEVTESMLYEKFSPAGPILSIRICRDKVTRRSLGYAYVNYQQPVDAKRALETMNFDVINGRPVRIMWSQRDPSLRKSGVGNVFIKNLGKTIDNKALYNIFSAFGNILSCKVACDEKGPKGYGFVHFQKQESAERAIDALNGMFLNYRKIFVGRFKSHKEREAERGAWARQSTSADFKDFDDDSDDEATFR
Oligonucleotide	7-mer Z-score
ACCUGAA	-0.079
AGUGUGC	-0.0536
UAGGGUU	-0.202
GGUAUUA	-0.157
UAACAUA	0.0207
AACGCGU	0.0189
CUUGAAG	-0.128
GUUCCCG	-0.391
AUCCGAG	-0.0844
CGUGCCA	-0.253
ACAACGG	0.195
CCACACC	-0.356
CGUUGAU	-0.293
UCAAGAA	0.234
CUCCAUU	-0.248
CUACCUA	-0.215
UGUGCAC	-0.188
UUCCGUG	-0.338
CCGGCAG	-0.0881
GUAUGGC	-0.0953
CUGUCCU	-0.313
GCCGGGG	-0.0192
GAUACUC	-0.315

Sample 3 — method: DHFR PCA, deep sequencing; medium: yeast; added: (+)-ABA 4.8 µM; relative to: wild-type fitted maximum; reading: higher = stronger binding
Target: ABI1, truncated, D143A, DHFR fusion (Arabidopsis thaliana)
Notes: methotrexate growth selection, single substitutions
Starting sequence: PYL1, truncated, DHFR fusion (Arabidopsis thaliana); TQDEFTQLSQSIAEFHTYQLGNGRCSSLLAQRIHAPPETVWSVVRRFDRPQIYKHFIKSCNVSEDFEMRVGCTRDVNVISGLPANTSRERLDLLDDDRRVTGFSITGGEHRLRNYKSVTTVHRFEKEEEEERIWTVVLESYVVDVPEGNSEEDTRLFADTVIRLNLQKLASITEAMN; partner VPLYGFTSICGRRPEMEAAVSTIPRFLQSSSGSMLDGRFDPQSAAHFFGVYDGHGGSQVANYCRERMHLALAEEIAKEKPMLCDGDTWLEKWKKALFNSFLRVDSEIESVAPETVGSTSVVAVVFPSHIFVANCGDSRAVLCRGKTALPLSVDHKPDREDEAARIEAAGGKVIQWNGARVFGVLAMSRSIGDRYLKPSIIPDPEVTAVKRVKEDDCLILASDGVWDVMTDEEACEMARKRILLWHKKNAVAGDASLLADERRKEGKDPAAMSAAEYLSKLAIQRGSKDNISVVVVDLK
Change	relative binding score
F47R	1.54%
E147T	55.9%
G71S	9.16%
H110L	3.59%
C25K	-14.9%
F5V	71.6%
S150R	10.2%
K116G	0.649%
R132Y	63%
M176C	53.9%
G81N	2.65%
M68T	42.6%
E64F	48.6%
S80M	10.4%
D3G	56.2%
S59V	23.9%
R49F	20.8%
E129C	72.1%

Sample 4 — target: CCNB2, cyclin fold, Cln2 fusion (human); method: yeast growth competition, sequencing; medium: yeast; notes: weak parent motif; relative to: not given; reading: higher = stronger binding
Starting sequence: RBL1 docking peptide (human); GSAKRRLFGEDPP; partner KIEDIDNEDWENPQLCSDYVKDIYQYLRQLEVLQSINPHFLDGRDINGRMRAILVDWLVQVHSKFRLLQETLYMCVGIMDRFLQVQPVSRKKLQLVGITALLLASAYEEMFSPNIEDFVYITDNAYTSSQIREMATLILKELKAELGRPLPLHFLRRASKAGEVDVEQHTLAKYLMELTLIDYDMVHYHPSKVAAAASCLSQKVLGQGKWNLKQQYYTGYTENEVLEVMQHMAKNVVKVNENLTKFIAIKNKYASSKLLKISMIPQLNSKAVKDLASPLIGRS
Change	normalised enrichment score
GSRKRRLFGEDPP [A3R]	0.231
GSAKRRLFGEDSP [P12S]	0.312
GSAKRRLFGGDPP [E10G]	-0.173
GSAKRRGFGEDPP [L7G]	0.162
GSAKRRLFGQDPP [E10Q]	-0.215
GPAKRRLFGEDPP [S2P]	0.138
GSAVRRLFGEDPP [K4V]	-0.0618
GSAKRRLFGHDPP [E10H]	0.737
RSAKRRLFGEDPP [G1R]	0.363
PSAKRRLFGEDPP [G1P]	-0.0631
GSAGRRLFGEDPP [K4G]	0.0446
GSAKRRLFQEDPP [G9Q]	0.0782

Sample 5 — method: protein-binding microarray; form: double-stranded DNA, one strand shown; medium: in vitro; tested at: 2200 nM top; notes: 60-bp whole probe; added: salmon DNA 0.4 mg/ml; relative to: random background probes; reading: higher = stronger binding; constant ends, left off below: GCCTAGCAC … GTCTTGATTCGCTTGACGCTGCTG
Target: Interferon regulatory factor 7, full length, phosphomimetic (IRF7, Homo sapiens, UniProt Q92985, residues 1-503, S471D/S472D/S475D/S476D/S477D/S483D/S484D/S487D)
Construct (chain): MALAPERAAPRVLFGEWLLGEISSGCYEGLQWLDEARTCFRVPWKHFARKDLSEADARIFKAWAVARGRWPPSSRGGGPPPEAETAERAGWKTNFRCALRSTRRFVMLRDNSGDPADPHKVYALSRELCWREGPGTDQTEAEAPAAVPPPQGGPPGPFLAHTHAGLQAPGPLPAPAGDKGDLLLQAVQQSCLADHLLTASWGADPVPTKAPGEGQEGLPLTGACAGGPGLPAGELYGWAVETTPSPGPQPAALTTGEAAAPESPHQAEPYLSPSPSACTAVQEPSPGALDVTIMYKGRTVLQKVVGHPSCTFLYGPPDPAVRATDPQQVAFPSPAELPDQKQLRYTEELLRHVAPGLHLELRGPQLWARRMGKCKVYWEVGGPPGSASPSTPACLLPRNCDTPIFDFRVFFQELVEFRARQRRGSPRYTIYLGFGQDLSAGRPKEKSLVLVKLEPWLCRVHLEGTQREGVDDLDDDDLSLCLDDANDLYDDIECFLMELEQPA
Oligonucleotide	fitted relative affinity
TATGTTCCTTATTTAAGACCGTGCTAG	1.37 z-score
ATAGGTTTCTATATTTGCTTGTGCTAG	1.79 z-score
GACGATTTCAGAGTGGAGACGTGCTAG	-0.0442 z-score
TTAGGTTCCGGTGTCGGTTAGTGCTAG	0.466 z-score
TTAGATCTCATACTGGATTAGTGCTAG	0.145 z-score
TATAATATATATATTGTTAGGTGCTAG	0.0702 z-score
GACGAACTGAATATCGAGACGTGCTAG	-0.0634 z-score
TTAGGACTGGACACTGTGTTAGTGCTA	-0.348 z-score
TCATTTGTATTTTTGATACTGTGCTAG	1.62 z-score
TCAGCTTTCCTTCTTGAACTGTGCTAG	2.05 z-score
GAGGGTATCGACTATCGGGACGTGCTA	-0.592 z-score
GACTATCTCAGTATCGAGACGTGCTAG	0.496 z-score

Some of these lines once more (sample 4):
Change	normalised enrichment score
GPAKRRLFGEDPP [S2P]	0.138
GSAKRRGFGEDPP [L7G]	0.162
GSAKRRLFGHDPP [E10H]	0.737
GSAKRRLFGQDPP [E10Q]	-0.215
PSAKRRLFGEDPP [G1P]	-0.0631
RSAKRRLFGEDPP [G1R]	0.363
GSAVRRLFGEDPP [K4V]	-0.0618
